Measurements gathered from unrelated publications.
Each numbered part is a random draw from the data of one study; scales do not carry over between parts. “And” joins repeats or separate records; there may be more than shown.
Sequence of UniProt P27448 (whole entry, looked up): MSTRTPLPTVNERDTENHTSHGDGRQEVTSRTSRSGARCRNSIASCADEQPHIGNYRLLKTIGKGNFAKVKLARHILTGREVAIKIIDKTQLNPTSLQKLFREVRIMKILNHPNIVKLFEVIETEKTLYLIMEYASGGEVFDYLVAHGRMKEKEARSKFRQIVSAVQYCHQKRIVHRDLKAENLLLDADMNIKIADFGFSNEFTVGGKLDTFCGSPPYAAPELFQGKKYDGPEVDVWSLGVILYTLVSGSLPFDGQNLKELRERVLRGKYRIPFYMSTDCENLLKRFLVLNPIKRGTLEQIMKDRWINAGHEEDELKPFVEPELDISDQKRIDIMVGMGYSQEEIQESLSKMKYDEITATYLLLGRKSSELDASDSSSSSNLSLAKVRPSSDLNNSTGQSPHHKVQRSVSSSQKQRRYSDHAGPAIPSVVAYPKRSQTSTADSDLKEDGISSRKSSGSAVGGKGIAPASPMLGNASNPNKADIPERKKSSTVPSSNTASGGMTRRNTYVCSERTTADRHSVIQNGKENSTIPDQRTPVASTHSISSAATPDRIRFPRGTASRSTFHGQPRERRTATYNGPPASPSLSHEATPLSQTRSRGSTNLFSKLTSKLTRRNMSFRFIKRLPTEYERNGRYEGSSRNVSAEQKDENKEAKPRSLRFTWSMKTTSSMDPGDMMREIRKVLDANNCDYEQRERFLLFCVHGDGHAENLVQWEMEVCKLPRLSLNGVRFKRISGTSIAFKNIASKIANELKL
Sequence of UniProt P00519 (whole entry, unmodified, looked up): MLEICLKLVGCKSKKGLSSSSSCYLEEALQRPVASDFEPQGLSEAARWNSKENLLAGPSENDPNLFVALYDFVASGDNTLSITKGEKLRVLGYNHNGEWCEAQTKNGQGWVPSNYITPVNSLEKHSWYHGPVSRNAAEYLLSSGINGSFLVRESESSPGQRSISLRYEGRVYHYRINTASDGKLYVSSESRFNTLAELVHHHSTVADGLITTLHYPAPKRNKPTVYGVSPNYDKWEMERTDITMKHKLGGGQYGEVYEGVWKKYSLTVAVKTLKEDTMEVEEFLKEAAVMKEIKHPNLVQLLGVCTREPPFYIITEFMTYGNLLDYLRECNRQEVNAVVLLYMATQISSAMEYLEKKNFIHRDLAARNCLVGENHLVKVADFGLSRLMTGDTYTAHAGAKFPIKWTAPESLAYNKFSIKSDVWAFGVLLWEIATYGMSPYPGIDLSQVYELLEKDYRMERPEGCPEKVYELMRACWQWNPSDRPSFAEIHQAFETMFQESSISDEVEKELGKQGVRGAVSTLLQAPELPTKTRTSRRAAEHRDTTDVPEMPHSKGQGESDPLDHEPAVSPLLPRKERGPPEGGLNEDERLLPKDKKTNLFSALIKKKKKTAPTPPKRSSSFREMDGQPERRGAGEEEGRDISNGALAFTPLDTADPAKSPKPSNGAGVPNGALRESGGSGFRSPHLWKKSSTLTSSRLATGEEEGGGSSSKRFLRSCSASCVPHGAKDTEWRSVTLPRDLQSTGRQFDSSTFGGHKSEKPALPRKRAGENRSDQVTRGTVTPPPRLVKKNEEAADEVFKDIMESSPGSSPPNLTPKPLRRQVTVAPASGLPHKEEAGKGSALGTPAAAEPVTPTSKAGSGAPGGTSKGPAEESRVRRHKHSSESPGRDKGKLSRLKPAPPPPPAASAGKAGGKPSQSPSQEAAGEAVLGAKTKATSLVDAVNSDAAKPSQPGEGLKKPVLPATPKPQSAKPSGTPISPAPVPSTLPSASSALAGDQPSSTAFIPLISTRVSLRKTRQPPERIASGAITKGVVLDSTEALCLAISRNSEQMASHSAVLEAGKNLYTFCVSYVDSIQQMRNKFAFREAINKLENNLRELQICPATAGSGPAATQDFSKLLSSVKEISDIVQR
Sequence of UniProt Q13233 (whole entry, looked up): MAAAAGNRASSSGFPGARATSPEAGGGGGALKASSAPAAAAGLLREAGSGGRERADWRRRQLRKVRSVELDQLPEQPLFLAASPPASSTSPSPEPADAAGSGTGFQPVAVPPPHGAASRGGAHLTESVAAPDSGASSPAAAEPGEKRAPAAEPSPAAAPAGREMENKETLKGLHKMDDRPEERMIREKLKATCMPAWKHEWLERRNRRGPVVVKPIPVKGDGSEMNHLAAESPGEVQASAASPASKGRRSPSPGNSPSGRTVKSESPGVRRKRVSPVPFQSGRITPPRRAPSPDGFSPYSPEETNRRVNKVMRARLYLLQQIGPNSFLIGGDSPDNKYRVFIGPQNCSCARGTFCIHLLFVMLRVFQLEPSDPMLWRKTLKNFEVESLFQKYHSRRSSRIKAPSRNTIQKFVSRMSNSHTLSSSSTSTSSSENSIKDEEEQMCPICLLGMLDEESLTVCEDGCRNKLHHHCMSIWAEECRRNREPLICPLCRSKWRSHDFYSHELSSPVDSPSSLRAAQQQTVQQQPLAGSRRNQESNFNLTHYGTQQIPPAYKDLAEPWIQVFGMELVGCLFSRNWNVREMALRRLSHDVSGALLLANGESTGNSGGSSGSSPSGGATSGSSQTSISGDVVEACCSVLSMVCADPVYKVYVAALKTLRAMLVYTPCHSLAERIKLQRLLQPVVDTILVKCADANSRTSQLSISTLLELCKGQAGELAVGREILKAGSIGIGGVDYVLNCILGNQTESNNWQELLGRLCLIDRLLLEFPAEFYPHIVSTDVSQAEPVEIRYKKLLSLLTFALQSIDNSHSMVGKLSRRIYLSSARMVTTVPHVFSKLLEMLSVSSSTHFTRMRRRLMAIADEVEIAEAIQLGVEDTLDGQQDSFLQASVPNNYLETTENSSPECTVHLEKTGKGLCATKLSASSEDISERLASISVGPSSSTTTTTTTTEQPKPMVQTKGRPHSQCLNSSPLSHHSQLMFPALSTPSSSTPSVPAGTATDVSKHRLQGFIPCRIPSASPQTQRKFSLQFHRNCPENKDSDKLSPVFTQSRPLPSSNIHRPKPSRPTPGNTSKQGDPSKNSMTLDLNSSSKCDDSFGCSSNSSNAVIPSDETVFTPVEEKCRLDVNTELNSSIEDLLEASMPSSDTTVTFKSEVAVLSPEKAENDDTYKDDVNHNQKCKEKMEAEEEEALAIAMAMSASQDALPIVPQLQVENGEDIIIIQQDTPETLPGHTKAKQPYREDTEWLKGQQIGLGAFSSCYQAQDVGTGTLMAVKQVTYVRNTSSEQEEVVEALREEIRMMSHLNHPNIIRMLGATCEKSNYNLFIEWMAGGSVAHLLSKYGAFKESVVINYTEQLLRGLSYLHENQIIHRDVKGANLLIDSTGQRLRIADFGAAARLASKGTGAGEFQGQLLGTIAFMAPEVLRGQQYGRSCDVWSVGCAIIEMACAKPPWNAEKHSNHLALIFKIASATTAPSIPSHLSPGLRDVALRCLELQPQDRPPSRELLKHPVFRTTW
Sequence of UniProt Q9H3Y6 (whole entry, looked up): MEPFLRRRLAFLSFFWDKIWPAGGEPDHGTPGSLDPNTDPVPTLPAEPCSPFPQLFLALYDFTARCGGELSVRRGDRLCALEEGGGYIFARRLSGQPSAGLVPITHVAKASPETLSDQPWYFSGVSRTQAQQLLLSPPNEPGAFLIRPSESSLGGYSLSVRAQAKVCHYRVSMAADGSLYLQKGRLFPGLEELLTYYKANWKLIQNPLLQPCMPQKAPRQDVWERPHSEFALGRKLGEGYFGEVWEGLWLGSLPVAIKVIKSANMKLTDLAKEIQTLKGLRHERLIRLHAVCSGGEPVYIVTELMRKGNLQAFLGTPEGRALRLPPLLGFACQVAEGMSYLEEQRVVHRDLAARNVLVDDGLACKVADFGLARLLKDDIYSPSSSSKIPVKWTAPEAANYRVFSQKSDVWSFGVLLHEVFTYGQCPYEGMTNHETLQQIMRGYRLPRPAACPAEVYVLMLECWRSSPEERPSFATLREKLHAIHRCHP
Sequence of UniProt P42681 (whole entry, looked up): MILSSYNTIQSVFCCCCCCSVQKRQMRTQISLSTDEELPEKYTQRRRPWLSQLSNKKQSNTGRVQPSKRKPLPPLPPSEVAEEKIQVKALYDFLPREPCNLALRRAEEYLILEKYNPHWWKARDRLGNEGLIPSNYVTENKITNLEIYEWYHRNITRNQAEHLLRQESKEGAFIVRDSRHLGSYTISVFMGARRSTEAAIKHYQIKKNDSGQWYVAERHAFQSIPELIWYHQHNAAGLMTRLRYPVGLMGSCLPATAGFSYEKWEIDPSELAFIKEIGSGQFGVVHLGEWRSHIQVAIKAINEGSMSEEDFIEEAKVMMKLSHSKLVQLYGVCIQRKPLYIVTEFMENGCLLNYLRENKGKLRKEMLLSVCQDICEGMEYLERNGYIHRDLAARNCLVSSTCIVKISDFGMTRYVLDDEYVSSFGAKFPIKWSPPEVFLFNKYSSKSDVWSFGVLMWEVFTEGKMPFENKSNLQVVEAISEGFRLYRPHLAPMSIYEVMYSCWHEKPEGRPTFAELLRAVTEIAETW

Sample 1
Target: Serine/threonine-protein kinase PAK 1 (PAK1, Homo sapiens, UniProt Q13153)
Sequence of UniProt Q13153 (whole entry, looked up): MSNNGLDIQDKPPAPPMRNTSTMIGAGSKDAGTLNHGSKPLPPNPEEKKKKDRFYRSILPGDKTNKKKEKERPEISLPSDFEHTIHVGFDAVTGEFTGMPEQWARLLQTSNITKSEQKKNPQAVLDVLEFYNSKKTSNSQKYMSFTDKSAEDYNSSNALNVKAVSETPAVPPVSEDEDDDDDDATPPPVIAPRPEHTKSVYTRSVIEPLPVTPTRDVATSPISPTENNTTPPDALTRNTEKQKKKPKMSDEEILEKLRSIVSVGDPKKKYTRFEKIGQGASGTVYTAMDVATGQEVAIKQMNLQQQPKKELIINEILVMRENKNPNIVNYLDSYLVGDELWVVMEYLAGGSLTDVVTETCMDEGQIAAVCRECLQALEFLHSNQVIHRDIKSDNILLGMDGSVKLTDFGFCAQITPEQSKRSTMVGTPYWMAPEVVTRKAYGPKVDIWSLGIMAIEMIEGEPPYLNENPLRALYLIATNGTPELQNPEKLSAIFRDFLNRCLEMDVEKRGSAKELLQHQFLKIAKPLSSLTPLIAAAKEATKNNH
Effect on: enzyme activity
Mode: inhibitor
Tested at: 0.5 µM
Baseline: control
| Structure (SMILES) | remaining activity [%] |
| --- | --- |
| O=c1cc(-c2cccc3c2Sc2ccccc2S3)oc(N2CCOCC2)c1 | 92.3 |
| CCN(CC)C(=O)c1ccc(Nc2nc(OCC3CCCCC3)c3[nH]cnc3n2)cc1 | 93.8 |
| O=C(NC(NC(=S)Nc1ccc(F)c([N+](=O)[O-])c1)C(Cl)(Cl)Cl)C(c1ccccc1)c1ccccc1 (stereo not drawn) | 86 |
| CCN(CC)CCNC(=O)c1c(C)[nH]c(/C=C2\C(=O)Nc3ccc(F)cc32)c1C | 118 |
| COc1cc2ncnc(Nc3ccc(O)c(Br)c3)c2cc1OC | 94.1 |
| O=C1C(Cl)=C(N2C(=O)CCC2=O)C(=O)c2ccccc21 | 96.3 |
| O=C(Nc1cccc(Nc2nccc(Nc3cccc(C(F)(F)F)c3)n2)c1)C1CC1 | 89.5 |

Sample 2
Structure (SMILES): O=C(O)[C@@H]1[C@@H](Cn2nnc3ccccc3c2=O)CC[C@H]1C(=O)c1ccc(OCCC2CCOCC2)cc1
Method: competition with immobilised ligand
Tested at: 1 µM
| target | assay | remaining binding |
| --- | --- | --- |
| SRMS (Homo sapiens, UniProt Q9H3Y6) | cell-free assay | 100% |
| TXK (Homo sapiens, UniProt P42681) | binding | 94% |
| EGFR (Homo sapiens, UniProt P00533, G719S) | cell-free assay | 88% |
| STK33 (Homo sapiens, UniProt Q9BYT3) | cell-free assay | 69% |
| ERBB2 (Homo sapiens, UniProt P04626) | cell-free assay | 100% |
| MARK3 (Homo sapiens, UniProt P27448) | cell-free assay | 100% |
| PRKACA (Homo sapiens, UniProt P17612) | cell-free assay | 90% |
| EGFR (Homo sapiens, UniProt P00533) | cell-free assay | 90% |
| CSK (Homo sapiens, UniProt P41240) | cell-free assay | 90% |
| PIM1 (Homo sapiens, UniProt P11309) | cell-free assay | 100% |
| TLK1 (Homo sapiens, UniProt Q9UKI8) | cell-free assay | 100% |
| RET (Homo sapiens, UniProt P07949, V804L) | cell-free assay | 94% |
| Tyrosine-protein kinase ABL1, phosphorylated (ABL1, Homo sapiens, UniProt P00519, F317L) | cell-free assay | 92% |
| SBK3 (Homo sapiens, UniProt P0C264) | cell-free assay | 43% |
| MAP3K1 (Homo sapiens, UniProt Q13233) | cell-free assay | 100% |
| PIK3CA (Homo sapiens, UniProt P42336, E545A) | cell-free assay | 100% |

Sample 3
Cell line: A-375
Tested at: 100 µM
Time: 36 h
| Structure (SMILES) | viability |
| --- | --- |
| N[C@@H](Cc1cc(I)c(Oc2ccc(O)c(I)c2)c(I)c1)C(=O)O | 90.8% |
| CN(C)c1ccc(O)c2c1C[C@H]1C[C@H]3[C@H](N(C)C)C(O)=C(C(N)=O)C(=O)[C@@]3(O)C(O)=C1C2=O | 110% |
| CC(COc1ccccc1)NC(C)C(O)c1ccc(O)cc1 (stereo not drawn) | 113% |
| CC1(C)[C@@H](O[C@H]2O[C@H](C(=O)O)[C@@H](O)[C@H](O)[C@H]2O[C@@H]2O[C@H](C(=O)O)[C@@H](O)[C@H](O)[C@H]2O)CC[C@]2(C)[C@H]3C(=O)C=C4[C@@H]5C[C@@](C)(C(=O)O)CC[C@]5(C)CC[C@@]4(C)[C@]3(C)CC[C@@H]12 | 112% and 118% |
| COc1cc2c(Nc3ccc(Br)cc3F)ncnc2cc1OCC1CCN(C)CC1 | 0.779% |
| OCCN1CCN(CCCN2c3ccccc3Sc3ccc(Cl)cc32)CC1 | -0.0139% |
| CCN(CC)CCNC(=O)c1c(C)[nH]c(/C=C2\C(=O)Nc3ccc(F)cc32)c1C | 0.835% and 6.13% |
| C[C@]12CC[C@@H]3c4ccc(O)cc4C[C@@H](CCCCCCCCC[S+]([O-])CCCC(F)(F)C(F)(F)F)[C@H]3[C@@H]1CC[C@@H]2O (stereo partly drawn) | 91.1% |
| C[C@]12C=CC(=O)C=C1CC[C@H]1[C@@H]3C[C@@H](O)[C@](O)(C(=O)CO)[C@@]3(C)C[C@H](O)[C@@]12F | 104% |

Single results of other studies
| SMILES | test system | measurement | value |
| --- | --- | --- | --- |
| CCC[C@@H]1NC(=O)CSC[C@@H](C(=O)OCC)N(C)C(=O)[C@H](CC(C)C)NC(=O)[C@@H](C)N(C)C(=O)[C@@H](CC(C)C)NC(=O)[C@H](C)N(C)C(=O)[C@@H]2CCCN2C(=O)[C@@H](CC(C)C)NC(=O)CN(C)C1=O | hydrocarbon/water | logD | 0.477 |

Repeated from above (sample 3):
| Structure (SMILES) | viability |
| --- | --- |
| C[C@]12CC[C@@H]3c4ccc(O)cc4C[C@@H](CCCCCCCCC[S+]([O-])CCCC(F)(F)C(F)(F)F)[C@H]3[C@@H]1CC[C@@H]2O (stereo partly drawn) | 91.1% |
| CC(COc1ccccc1)NC(C)C(O)c1ccc(O)cc1 (stereo not drawn) | 113% |
| CC1(C)[C@@H](O[C@H]2O[C@H](C(=O)O)[C@@H](O)[C@H](O)[C@H]2O[C@@H]2O[C@H](C(=O)O)[C@@H](O)[C@H](O)[C@H]2O)CC[C@]2(C)[C@H]3C(=O)C=C4[C@@H]5C[C@@](C)(C(=O)O)CC[C@]5(C)CC[C@@]4(C)[C@]3(C)CC[C@@H]12 | 112% and 118% |
